Published values pooled from the literature.
Each numbered part is a random draw from the data of one study; scales do not carry over between parts.

Set 1
Target: RNA binding protein fox-1 homolog 2, RRM domain, GST-SBP tag (RBFOX2, Homo sapiens, UniProt O43251-10, residues 100-194)
Technique: RNA Bind-n-Seq
Molecule type: RNA
Matrix: in vitro
Tested at: 365 nM
Setting: natural RNA segment, single round, ends assumed
Baseline: no-protein control
Direction: higher = stronger binding
All sequences stand within: GGGAGUUCUACAGUCCGACGAUC … UGGAAUUCUCGGGUGCCAA
Target sequence (chain): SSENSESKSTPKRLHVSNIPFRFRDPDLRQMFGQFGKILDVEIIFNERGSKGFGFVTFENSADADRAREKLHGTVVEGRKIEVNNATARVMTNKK
| Sequence | RBNS enrichment (R) |
| --- | --- |
| CGGGAGCUAGAGACCAGGAGAUAUGAGGCCAGUGUGAGCUGUGUCACAAGUUCCAGGUCAGCCUGUGCUGUGUAGCACAGUCCAGCUCCCUACACCUCCUCACACACACA | 0.204 |
| AGAGGUAGAAAACUUCAGUUGUUCCAGAUGAUGAUGUCAUGGUAUCGAGUAUUCUUUAUAUUCAGUUCCUAUUUAAGUCAUUUUUGUCAUGUCCGCCUAAUUGAUGUAGU | 0.449 |
| AGACUUGCUGUUGCCUGACAAUUAACUCACUGUGAGGAUAGGCACGCACGCUUUUCAUAAUUAACUGGUGCUUUGAAACCUUUCUUAUGGAAGAAAAAUCUCAACCAAAG | 0.477 |
| CGGACCAGGGAGGCGUCCCUCCCUAGGAGCCACACAUUAUACUCCAAGUCCCUGCCGGGCUCCGCCUUUCCCCCACCCUGGCUCUCAGGGUGACGCCACCCACAGAGAUU | 0.296 |
| UACCAAAAUGAGAGAUCAGCAAGAUUUCCCAAGAUAGGAGAAUCCUCCUGCUGCCUGCGUGGGAGAAAGUAGGGGAGGAGUCCAAACCAGGCCACCAGAGAUGGUUGAGA | 1.15 |
| UCCAGCAAAACUACUGCUUAUUCUCCAAAGAAUAUUGGGAGCUCUCAAUCCUCGGUGAUAUGGGAAAGAGAACUGAGUAUUUGCCCUAUGACUGAGCUUUCUAUAGGAAU | 0.379 |
| CCAGGCUGUGGGACAGCUGCCUUCCCACGAAAGUGUAAAGCAGUAUUAAGAUCAUUACUGCAUGUGCCCUAAAAACCCAAGUUUUCUAUUCCCUUAGGACAGAAAAUUGC | 0.731 |
| AUUGGUGGUAUUAACCUAGAACCAGUAGUGUACGUUAAUACACAUAACUGUGGUGUUAUGUAAAUAAAAUUAGUAAUAAUCAGGCUUUAGAACUGCUUUCCUAUAUUUAU | 0.231 |

Set 2
Target: Histone acetyltransferase KAT6A, both winged helices, GST fusion (KAT6A, Homo sapiens, UniProt Q92794, residues 1-181)
Technique: protein binding microarray
Molecule type: double-stranded DNA, one strand shown
Matrix: in vitro
Tested at: not given
Setting: 8-mer, flanks averaged, mean of 2 arrays, mostly near background
Baseline: not given
Direction: higher = stronger binding
Target sequence (chain): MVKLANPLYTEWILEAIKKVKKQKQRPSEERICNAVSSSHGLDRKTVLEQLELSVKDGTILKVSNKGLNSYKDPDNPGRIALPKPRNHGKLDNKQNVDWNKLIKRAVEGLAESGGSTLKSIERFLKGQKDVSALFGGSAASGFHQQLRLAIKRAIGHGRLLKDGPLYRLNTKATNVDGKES
| Sequence | E-score |
| --- | --- |
| CAGTTTAC | -0.00983 |
| CTATGATC | 0.0212 |
| CGGACCTC | 0.133 |
| CCCATTAC | -0.171 |
| CTATTTTC | -0.114 |
| AGTTGTTC | -0.0752 |
| GTCACAAA | -0.00775 |
| AAACACAT | -0.132 |
| CCATGATA | -0.0615 |
| GCAAAGCA | -0.0512 |
| AGTGTAAC | -0.128 |
| CCTTGCCC | -0.0321 |
| GCAGATGC | -0.0626 |
| CCCAATGA | -0.242 |
| AGGCCCTG | -0.184 |
| GTTCAAAA | -0.0392 |

Set 3
Target: Interferon regulatory factor 7, full length, phosphomimetic (IRF7, Homo sapiens, UniProt Q92985, residues 1-503, S471D/S472D/S475D/S476D/S477D/S483D/S484D/S487D)
Sequence of UniProt Q92985 (whole entry, unmodified, looked up): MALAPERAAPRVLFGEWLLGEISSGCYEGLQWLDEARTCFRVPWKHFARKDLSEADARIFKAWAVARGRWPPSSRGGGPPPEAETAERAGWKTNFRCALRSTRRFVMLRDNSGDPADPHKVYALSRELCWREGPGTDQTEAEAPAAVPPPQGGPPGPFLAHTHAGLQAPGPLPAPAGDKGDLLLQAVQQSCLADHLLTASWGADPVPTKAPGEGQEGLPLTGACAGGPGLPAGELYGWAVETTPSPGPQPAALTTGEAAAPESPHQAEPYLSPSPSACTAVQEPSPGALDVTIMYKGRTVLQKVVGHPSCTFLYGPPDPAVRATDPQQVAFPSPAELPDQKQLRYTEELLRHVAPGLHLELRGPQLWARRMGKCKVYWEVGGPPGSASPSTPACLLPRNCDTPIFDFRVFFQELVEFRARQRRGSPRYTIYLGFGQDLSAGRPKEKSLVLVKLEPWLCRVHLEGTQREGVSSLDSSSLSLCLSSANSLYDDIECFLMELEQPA
Technique: protein-binding microarray
Molecule type: double-stranded DNA, one strand shown
Matrix: in vitro
Tested at: 2200 nM top
Setting: 60-bp whole probe
Together with: salmon DNA 0.4 mg/ml
Baseline: random background probes
Direction: higher = stronger binding
All sequences stand within: GCCTAGCAC … GTCTTGATTCGCTTGACGCTGCTG
| Sequence | fitted relative affinity [z-score] |
| --- | --- |
| TCAGATTACATATATGTTACTGTGCTA | 0.671 |
| GACGGTTTCGTCTTTCGGGACGTGCTA | 7 |
| TCATGCTTTCTTTTATGACTGTGCTAG | 1.57 |
| ATAGGTTTCGGGACTGGGTTAGTGCTA | 3.49 |
| AACTCTCTAATTTTGAGACTGTGCTAG | -0.0285 |
| GTAGGTATCCTTCTCCTTTAGTGCTAG | 1.32 |
| GACGAACTGGGGTATCGAAACGTGCTA | 0.477 |
| TCAATCATTGTTTTCAGACTGTGCTAG | 0.971 |
| GGTCTTCTGGGCTGTTTAGTCGTGCTA | -0.0652 |
| TCATGCTTCTGTATTCAACTGTGCTAG | 1.42 |
| TGAGATCTCAGTATCGATTAGTGCTAG | 0.0716 |
| GACGTTTTCGGGACTGGGGACGTGCTA | 3.33 |
| TTAGGTTTCGACACTGGGGTAGTGCTA | 2.27 |
| TTAGATTTCGGTTCCGATTAGTGCTAG | 6.32 |
| GACGGACTGGGGACCGGGGACGTGCTA | -0.792 |
| GACGATTTCAGTCTCTAGACGTGCTAG | 1.1 |
| TGAGATATCGGGTTTCGATTAGTGCTA | 2.37 |
| GACGAAATGAGTCTCGAGACGTGCTAG | 0.0786 |
| TCATAATTTACTTTGGTACTGTGCTAG | 0.724 |

Set 4
Target: RING finger protein unkempt homolog, zinc fingers 1-6, GST-SBP tag (UNK, Homo sapiens, UniProt Q9C0B0, residues 30-357)
Technique: RNA Bind-n-Seq
Molecule type: RNA
Matrix: in vitro
Tested at: not given
Setting: RNA with constant flanks, ends assumed
Baseline: input RNA pool
Direction: higher = stronger binding
All sequences stand within: GGGAGUUCUACAGUCCGACGAUC … CAACAGAGGAUUGAGCAUCA
Target sequence (chain): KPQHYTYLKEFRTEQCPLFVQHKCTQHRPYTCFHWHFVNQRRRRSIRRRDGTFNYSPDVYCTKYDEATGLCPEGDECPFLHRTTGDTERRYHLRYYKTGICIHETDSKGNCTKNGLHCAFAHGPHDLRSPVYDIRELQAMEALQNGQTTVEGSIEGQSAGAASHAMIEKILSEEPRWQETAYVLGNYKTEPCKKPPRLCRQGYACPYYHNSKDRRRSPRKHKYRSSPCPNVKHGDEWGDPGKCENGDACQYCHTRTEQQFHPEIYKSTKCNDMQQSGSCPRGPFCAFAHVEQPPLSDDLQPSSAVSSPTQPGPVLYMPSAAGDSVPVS
| Sequence | bound/input enrichment |
| --- | --- |
| CUUGGCCAGGAGGGUGAUGCCAGCUAUCUUGCUUCUGAAAUAUCUACCUGGGAUGGAGUGACCGUAACACCUUCAGAAAAGGCUUAUGAGAAGCCACCAGAGAAGAAGGAAGGAGAGGAA | 0.176 ratio |
| UGCCGGCCCGGAGGAGGCCCGGCCAUGGGUGGAAACCUCAAAGCUCGGGGGGCCGGCGGCCGCAGCAGUUGCGGGGGCCCAAAGGGGAAGAAGAAGAACGGAAGGAACAGAGGAGGUAAA | 0.121 ratio |
| CCUGUACCCGCACCCCUGCCCAUGUGUACUGUAUGUGCCCCCAAAUGGAUGAGAGAUGGAAACCGAAAGAGGGGGCCCGAGCCCAGCCCCCAGCUCAGCCCGAAGCACUUAACCAGUCCC | 0.472 ratio |
| GAAACAUUUAAAUUUAAAGAAGCUGUUGUUUUAGGGAGCACGGACUUCCUAGAAGAUGAUACCGAAAAAAUUGUAGAAGAACUGGGAAAAGAAUACAAAGGCAAUGCUUAUCAUUUAAUG | 0.688 ratio |
| CGCGUUUUGUGUAGAGAAUAAGGAACGUGGAUCUUUUUAUUUUGCAAUCCUGGGCCAGCCCGAAGCCAGGAGCUGAUUGACCUUUUAACUUUUUUCAGUGGCCACAUUUUGGUUAUCGAU | 0.493 ratio |
| GGAGCAGAUGCUGAUCUCAUUAUGCUUGGCCUUGCCACACAUGAACCGAACUUUACCAUUAUCCGAGAAGAAUUCAAACCAAACAAGCCCAAACCAUGUGGUCUUUGUAAUCAGUUUGGA | 0.0862 ratio |
| GAGCAAAAGUUUAAAAUUUUGUGAAUUUAUUAAAGCUCCGUUUGUUGCUUUUUUCUGUUCCCGUUUAUACUUUUGUAUCAUAUUUUAGGAAAUUUUGCACUGGGUAUUUGAUGGCUCCUG | 4.74 ratio |
| UGUGUGGCCAGAGCUUGCACAGGAGGAAAGCAGGCUGCUGAAUUUAGUCACUGAUCUCUAUCCGCGGCCGCCUAAGGCUAUGCUGAGGUUUAUAUCCCAUUUGUAUUGUUGCAGCUCAAA | 0.359 ratio |
